# Assay results collected from several papers.
# A part holds a random share of what one study measured.
# Chain of UniProt Q9UM73 (whole entry, unmodified, looked up): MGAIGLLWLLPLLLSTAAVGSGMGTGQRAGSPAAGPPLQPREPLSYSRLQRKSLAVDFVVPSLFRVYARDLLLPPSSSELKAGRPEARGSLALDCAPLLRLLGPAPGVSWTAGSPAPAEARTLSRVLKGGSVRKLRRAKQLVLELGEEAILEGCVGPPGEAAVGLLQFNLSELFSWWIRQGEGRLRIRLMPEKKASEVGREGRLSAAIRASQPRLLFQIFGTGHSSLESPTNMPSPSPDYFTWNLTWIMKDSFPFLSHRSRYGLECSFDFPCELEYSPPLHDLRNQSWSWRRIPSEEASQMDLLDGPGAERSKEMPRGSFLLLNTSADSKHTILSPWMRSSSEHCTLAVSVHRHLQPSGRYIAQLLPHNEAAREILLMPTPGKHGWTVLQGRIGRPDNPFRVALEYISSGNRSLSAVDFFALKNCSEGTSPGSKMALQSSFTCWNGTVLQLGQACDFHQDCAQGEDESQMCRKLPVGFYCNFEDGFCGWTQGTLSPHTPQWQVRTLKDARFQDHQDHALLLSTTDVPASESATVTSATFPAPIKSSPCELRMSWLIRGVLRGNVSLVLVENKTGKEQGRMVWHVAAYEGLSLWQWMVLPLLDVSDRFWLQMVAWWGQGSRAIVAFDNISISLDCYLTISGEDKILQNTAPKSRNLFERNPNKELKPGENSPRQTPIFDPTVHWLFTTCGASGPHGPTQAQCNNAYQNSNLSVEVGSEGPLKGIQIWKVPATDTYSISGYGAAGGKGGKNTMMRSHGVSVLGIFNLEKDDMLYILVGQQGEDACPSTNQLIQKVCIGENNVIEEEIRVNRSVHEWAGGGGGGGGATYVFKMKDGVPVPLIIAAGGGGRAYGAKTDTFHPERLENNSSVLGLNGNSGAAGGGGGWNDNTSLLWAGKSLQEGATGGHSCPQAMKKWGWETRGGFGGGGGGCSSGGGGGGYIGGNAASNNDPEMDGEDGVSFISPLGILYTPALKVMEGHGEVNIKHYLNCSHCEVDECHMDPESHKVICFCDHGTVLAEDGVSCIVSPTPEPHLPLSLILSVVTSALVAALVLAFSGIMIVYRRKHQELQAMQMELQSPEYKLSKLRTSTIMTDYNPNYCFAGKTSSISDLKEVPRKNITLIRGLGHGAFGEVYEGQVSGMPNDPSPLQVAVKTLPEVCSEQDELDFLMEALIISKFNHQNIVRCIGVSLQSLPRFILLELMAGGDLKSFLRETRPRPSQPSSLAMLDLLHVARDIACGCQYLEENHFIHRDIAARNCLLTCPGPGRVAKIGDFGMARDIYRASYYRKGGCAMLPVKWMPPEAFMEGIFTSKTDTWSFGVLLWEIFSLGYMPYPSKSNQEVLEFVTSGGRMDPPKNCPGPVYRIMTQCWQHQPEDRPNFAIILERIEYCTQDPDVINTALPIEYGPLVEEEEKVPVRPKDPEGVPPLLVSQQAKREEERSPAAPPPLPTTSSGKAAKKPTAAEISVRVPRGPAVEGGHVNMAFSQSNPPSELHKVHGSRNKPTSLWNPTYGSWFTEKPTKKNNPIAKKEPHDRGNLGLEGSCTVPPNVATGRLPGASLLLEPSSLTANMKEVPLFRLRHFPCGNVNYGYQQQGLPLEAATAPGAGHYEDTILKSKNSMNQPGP
# Chain of UniProt P29317 (whole entry, looked up): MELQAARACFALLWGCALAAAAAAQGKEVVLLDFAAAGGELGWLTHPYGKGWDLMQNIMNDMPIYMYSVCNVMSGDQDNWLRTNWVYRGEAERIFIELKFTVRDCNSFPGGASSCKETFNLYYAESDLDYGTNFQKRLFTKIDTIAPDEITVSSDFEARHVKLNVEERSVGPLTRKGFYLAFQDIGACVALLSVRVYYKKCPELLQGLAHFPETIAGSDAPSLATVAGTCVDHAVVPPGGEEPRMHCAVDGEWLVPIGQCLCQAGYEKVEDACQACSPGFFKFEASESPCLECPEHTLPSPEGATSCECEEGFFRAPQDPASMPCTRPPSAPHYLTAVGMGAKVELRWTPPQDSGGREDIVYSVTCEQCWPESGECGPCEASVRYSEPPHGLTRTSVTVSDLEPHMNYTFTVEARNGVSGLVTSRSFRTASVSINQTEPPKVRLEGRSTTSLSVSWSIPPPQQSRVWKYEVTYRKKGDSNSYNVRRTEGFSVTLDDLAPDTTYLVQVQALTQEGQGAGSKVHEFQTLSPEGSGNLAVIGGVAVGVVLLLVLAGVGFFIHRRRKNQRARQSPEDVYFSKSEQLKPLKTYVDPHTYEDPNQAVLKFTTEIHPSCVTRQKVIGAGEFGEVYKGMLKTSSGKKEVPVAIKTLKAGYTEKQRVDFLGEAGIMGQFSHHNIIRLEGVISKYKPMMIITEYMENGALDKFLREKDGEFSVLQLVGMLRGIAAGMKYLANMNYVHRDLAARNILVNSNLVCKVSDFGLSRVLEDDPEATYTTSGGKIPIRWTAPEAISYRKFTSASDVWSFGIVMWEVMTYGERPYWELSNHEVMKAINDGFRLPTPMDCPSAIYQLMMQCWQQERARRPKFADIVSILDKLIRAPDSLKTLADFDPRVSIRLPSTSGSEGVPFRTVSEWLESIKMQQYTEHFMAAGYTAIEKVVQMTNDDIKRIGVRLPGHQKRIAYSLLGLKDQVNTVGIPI
# Chain of UniProt O75460 (whole entry, looked up): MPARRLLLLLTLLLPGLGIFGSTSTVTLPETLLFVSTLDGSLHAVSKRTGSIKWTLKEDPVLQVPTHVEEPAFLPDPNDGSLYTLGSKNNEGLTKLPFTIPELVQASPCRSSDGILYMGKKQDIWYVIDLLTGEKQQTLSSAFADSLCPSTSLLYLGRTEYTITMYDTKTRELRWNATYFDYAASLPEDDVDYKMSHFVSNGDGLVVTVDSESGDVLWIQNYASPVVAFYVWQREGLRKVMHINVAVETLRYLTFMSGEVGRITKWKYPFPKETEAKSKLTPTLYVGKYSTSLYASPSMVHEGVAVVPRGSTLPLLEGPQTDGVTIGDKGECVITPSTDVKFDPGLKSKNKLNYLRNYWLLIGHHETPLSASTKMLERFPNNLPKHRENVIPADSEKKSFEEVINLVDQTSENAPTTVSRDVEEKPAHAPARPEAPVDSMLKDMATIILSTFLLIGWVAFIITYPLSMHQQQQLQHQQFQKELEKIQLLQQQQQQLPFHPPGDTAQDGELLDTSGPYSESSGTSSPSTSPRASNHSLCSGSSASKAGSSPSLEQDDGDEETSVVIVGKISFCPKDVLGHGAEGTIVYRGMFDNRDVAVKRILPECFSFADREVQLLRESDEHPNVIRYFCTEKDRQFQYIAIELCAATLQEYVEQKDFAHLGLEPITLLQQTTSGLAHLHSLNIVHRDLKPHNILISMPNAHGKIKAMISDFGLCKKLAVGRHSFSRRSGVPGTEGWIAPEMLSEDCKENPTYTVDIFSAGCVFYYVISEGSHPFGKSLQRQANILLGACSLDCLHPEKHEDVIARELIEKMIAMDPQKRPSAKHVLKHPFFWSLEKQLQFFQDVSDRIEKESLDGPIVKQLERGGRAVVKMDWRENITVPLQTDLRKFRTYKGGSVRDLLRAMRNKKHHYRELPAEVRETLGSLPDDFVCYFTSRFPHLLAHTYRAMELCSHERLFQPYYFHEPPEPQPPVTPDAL

# Series 1 — Compound: CCC(=O)Nc1ccc2ncnc(Nc3cccc(Br)c3)c2c1; effect on: enzyme activity; action: inhibitor; tested at: 0.5 µM; baseline: control
target,remaining activity [%]
"ABL1 (Homo sapiens, UniProt P00519)",98.9
"PDPK1 (Homo sapiens, UniProt O15530)",107
"MAP4K4 (Homo sapiens, UniProt O95819)",91.1
"HIPK2 (Homo sapiens, UniProt Q9H2X6)",97
"WNK3 (Homo sapiens, UniProt Q9BYP7)",99.3

# Series 2 — technique: RNA Bind-n-Seq; form: RNA; matrix: in vitro; tested at: 100 nM; baseline: input RNA pool; direction: higher = stronger binding
# Target: RING finger protein unkempt homolog, zinc fingers 1-6, SBP tag (UNK, Homo sapiens, UniProt Q9C0B0, residues 30-357)
# Chain of UniProt Q9C0B0 (30-357, looked up): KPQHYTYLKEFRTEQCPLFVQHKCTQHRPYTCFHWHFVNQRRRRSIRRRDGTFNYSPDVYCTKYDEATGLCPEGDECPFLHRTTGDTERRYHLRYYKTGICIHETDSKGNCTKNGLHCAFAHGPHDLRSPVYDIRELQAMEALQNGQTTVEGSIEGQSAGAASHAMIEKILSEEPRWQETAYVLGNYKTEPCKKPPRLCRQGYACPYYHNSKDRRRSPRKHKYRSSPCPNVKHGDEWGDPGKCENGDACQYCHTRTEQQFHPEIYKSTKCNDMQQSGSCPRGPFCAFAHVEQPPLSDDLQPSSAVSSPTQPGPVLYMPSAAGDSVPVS
# Setting: RNA with constant flanks, vertebrate orthologous sites, ends assumed
# All sequences stand within: GGGAGUUCUACAGUCCGACGAUC … CAACAGAGGAUUGAGCAUCA
Strand,bound/input enrichment [ratio]
CAACUUGUUCUAGAUGGUGAUCCUUCAAAGUUGGGUCAGGCAUUAAUUAGUGCUAGGUACUCACAAUGUUCAUUUCUCUGUUGCCGUUGAUCAGAGAGACAGACAUAAAAACAUAAGAAA,0.401
AGCAACUCAAGGAUUCAGAACUGGUUUUACAGAUGUCCCAAGCAGAUAUGGAACAAACACUCGUGGGCAACCCCGACCAUAAUAAACACCGUUAUUUAUUGUACUUAAGGGUAUUGACUU,0.257
UUUUGACUUCCUUUAUUCCUUUUUGUUUUCUUUUGCUUUAUUUUUAUUUUAUUUUUUUGGUAGUUGUUCUGACCCACGCCAUUUUACGUCUCCUUCACUGAAGGGCUAGAGUUUUAACUU,10.5
GAUCUGGACCUUGGAGCCGAACCAGGGAGCUAGCAAAAGUAAAGCAGACUUGUAAAAUUAUAGCCAUAUGCAGCUGCACAGCAACAGCACUACCACUAGCAGCUGUGUUAAAGUAUUUAU,0.689
UUUCUUUUUUUGCACAUGACAGUGUUUGUAUUGAGGAUCUUCCAAGGAAGAGGGGUGCUGUAGCAGUGGUGCCUGGGUACCUGGCCUCCAGUGUCCCACCUCCUUCACCACCCUGCUUGG,0.393
UUCAGGCACAACUGACUGGUUCACAGCAUUCCUUACAUAGUUAUCUAUCAAAUGCAAAUUUAGUUAAUUUUCAGGAAACAAGCAGGCAGUCAUCUUUAUCCUGUAGCCCAAUUGGAGAGU,2.84
CUACUAUAAACAACUCAGGGCAGUAUUCUCGAUAUCCUUACAGUAACCUAAAUCAGGGAUUAGUUAACAAUACAGGGAUGAAUCAAAAUUUAGGCCUUACAAAUAAUACUCCAAUGAAUC,1.55
UCCCAGCACGUUGAUAAAGAGCGUGGACUGGUUGCUCAUAUUUUCUUUAUUCUUUUUAAUCAGUUUUAUUAUGUAUGCUACCAUCCGAACUGAGAGUAUUCGGUGGCUAAUUCCAGGACA,0.614

# Series 3 — technique: universal PBM; form: double-stranded DNA, one strand shown; matrix: in vitro; tested at: 600 nM; direction: higher = stronger binding
# Target: Sal-like protein 4, full length isoform A (SALL4, Homo sapiens, UniProt Q9UJQ4, residues 1-1053)
# Chain of UniProt Q9UJQ4 (whole entry, looked up): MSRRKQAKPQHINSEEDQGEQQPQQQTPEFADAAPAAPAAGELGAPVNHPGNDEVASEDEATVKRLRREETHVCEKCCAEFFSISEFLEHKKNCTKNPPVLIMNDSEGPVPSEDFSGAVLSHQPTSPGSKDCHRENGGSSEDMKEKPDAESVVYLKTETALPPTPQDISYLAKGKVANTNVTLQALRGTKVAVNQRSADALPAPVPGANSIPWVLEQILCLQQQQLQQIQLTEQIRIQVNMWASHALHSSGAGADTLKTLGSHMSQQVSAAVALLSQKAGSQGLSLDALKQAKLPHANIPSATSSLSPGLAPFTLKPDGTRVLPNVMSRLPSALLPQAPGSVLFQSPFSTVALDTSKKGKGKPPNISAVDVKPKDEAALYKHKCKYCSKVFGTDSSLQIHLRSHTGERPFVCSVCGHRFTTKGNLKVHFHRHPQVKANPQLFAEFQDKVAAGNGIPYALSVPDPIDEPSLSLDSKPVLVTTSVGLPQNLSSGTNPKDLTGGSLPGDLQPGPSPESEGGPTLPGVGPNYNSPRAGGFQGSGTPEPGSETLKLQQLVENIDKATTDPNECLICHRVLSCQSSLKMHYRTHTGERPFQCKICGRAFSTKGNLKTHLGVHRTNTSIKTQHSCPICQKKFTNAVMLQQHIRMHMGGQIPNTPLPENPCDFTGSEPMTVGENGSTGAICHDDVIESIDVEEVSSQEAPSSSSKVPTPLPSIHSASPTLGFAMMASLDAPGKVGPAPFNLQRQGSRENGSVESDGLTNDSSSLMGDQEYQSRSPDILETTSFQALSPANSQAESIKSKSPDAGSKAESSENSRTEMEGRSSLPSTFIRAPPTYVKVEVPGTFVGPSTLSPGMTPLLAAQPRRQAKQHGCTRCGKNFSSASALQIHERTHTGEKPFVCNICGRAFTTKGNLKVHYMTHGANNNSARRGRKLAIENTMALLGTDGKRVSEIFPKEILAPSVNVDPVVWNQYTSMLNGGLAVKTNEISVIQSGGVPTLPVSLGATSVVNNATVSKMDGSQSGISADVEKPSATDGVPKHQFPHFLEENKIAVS
# Setting: 8-mer, flanks averaged, mean of replicates
Strand,E-score
CCTGTTAC,0.18
CAAACTAA,0.225
CGCAACAC,-0.0292
GAATACTA,0.239
ATCGCATA,0.189
GTGCTACA,0.0403
ACTCGAGA,-0.044
ATGGGTCC,-0.0363

# Series 4 — technique: competition with immobilised ligand; tested at: 0.1 µM
# SMILES: Cc1c[nH]c2nccc(Oc3c(F)cc(Nc4cc(Cl)nc(N)n4)cc3F)c12
target,effect on,remaining binding [%]
"WEE2 (Homo sapiens, UniProt P0C1S8)",cell-free assay,91
"BMX (Homo sapiens, UniProt P51813)",cell-free assay,100
"DAPK2 (Homo sapiens, UniProt Q9UIK4)",cell-free assay,89
"ALK (Homo sapiens, UniProt Q9UM73, L1196M)",cell-free assay,99
"Ribosomal protein S6 kinase alpha-2, N-terminal kinase domain (RPS6KA2, Homo sapiens, UniProt Q15349)",cell-free assay,82
"Tyrosine-protein kinase ABL1, phosphorylated (ABL1, Homo sapiens, UniProt P00519, Y253F)",cell-free assay,81
"ERN1 (Homo sapiens, UniProt O75460)",cell-free assay,68
"TXK (Homo sapiens, UniProt P42681)",binding,100
"ULK2 (Homo sapiens, UniProt Q8IYT8)",cell-free assay,89
"ALK (Homo sapiens, UniProt Q9UM73, C1156Y)",cell-free assay,100
"PRPF4B (Homo sapiens, UniProt Q13523)",cell-free assay,89
"MAP3K13 (Homo sapiens, UniProt O43283)",cell-free assay,81
"LIM domain kinase 2 (LIMK2, Homo sapiens, UniProt P53671)",cell-free assay,79
"PRKG2 (Homo sapiens, UniProt Q13237)",cell-free assay,90
"EPHA2 (Homo sapiens, UniProt P29317)",cell-free assay,100
